Published values gathered from unrelated publications.
Each numbered part is a random draw from the data of one study; scales do not carry over between parts.
UniProt P49759, sequence (whole entry, looked up): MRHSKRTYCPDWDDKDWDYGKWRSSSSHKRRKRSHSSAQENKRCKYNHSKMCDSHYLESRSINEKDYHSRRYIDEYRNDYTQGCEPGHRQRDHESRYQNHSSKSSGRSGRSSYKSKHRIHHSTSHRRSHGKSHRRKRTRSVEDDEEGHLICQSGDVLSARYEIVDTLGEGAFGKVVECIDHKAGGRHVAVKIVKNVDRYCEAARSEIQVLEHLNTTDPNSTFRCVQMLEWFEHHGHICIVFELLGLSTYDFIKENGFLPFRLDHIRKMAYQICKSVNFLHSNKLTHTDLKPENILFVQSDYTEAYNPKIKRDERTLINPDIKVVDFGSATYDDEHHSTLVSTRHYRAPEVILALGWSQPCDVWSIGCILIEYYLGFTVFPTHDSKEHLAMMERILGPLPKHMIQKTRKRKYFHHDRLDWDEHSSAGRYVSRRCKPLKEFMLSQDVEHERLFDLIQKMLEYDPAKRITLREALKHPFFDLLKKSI
UniProt P51813, sequence (whole entry, looked up): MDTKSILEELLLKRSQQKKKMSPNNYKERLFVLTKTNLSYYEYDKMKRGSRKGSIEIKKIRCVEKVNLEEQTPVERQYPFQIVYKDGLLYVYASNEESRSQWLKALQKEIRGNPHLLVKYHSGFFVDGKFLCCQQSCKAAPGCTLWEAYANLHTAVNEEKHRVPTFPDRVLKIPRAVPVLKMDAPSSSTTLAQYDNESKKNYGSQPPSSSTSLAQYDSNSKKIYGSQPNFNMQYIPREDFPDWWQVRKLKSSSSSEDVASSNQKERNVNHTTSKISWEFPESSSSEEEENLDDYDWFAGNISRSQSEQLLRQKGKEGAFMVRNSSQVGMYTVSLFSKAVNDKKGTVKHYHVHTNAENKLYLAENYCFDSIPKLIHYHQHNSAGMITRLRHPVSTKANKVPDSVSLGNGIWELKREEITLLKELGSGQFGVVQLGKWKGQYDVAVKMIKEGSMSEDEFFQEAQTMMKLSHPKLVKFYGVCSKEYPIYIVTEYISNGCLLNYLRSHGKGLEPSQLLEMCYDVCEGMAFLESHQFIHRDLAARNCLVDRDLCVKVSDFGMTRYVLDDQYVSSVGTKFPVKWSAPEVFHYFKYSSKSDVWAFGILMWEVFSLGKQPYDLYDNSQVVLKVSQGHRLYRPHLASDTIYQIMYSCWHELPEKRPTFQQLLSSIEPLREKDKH
UniProt P04049, sequence (whole entry, looked up): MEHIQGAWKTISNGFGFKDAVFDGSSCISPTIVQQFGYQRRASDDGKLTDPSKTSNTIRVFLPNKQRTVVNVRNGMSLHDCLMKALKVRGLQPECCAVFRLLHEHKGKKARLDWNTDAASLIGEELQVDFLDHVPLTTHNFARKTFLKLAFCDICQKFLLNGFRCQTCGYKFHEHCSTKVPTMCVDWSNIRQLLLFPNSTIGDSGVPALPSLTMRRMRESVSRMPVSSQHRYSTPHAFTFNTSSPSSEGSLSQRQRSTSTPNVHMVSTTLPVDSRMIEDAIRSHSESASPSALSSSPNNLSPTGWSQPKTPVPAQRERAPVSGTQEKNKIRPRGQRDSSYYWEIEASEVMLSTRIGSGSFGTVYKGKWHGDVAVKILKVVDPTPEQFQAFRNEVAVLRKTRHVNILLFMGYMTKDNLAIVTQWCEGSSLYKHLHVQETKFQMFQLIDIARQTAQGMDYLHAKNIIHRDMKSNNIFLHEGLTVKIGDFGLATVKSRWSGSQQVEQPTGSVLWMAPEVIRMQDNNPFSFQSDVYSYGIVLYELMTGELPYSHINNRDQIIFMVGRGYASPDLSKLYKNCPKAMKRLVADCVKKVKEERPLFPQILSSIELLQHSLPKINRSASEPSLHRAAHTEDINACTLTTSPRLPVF
UniProt O95819, sequence (whole entry, looked up): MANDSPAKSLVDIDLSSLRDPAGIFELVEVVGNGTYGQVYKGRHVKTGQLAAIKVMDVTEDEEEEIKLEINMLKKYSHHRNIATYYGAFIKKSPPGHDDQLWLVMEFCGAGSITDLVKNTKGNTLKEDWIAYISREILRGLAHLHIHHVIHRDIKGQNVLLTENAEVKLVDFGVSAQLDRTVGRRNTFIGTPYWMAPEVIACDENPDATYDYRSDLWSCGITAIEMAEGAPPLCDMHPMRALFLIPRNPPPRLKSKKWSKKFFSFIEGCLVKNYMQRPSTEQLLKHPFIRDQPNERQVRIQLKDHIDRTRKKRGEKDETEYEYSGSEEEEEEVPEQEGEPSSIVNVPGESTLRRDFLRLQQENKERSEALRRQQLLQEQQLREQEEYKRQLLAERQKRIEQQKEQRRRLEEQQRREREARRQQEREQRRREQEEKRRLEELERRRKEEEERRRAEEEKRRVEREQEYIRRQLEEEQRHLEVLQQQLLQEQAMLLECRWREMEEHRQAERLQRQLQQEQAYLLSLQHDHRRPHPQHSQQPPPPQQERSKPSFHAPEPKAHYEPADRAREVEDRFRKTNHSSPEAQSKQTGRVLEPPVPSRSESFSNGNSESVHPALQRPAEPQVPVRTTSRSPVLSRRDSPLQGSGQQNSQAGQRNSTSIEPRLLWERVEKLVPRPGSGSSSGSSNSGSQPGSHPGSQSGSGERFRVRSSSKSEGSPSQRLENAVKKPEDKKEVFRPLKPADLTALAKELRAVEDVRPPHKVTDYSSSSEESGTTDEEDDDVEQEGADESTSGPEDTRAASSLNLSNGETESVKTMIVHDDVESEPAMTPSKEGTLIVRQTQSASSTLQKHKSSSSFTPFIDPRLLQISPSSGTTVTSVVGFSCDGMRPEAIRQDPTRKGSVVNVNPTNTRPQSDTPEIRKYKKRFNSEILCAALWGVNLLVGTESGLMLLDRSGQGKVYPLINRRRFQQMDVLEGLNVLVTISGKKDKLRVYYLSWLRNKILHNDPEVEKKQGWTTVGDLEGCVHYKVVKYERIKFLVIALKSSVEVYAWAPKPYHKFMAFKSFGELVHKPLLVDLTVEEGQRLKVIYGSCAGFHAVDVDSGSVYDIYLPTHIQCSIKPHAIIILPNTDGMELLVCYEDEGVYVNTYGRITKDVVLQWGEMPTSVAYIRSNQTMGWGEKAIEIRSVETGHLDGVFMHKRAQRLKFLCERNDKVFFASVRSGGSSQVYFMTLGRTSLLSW
UniProt P37173, sequence (whole entry, looked up): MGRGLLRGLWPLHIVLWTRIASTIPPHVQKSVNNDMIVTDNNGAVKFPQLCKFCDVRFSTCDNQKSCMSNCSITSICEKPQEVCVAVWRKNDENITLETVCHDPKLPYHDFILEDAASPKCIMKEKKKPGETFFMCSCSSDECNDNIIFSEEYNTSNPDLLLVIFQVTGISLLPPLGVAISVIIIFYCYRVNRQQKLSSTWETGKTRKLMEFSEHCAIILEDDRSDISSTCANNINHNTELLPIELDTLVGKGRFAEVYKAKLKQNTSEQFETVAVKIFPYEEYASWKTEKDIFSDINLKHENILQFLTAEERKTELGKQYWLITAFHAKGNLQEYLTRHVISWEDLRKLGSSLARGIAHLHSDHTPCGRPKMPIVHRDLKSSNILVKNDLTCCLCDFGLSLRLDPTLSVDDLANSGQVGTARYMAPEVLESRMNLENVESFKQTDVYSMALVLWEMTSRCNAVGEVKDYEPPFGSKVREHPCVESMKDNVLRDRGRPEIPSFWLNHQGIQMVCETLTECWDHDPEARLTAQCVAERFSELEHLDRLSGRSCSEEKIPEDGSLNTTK
UniProt O14976, sequence (whole entry, looked up): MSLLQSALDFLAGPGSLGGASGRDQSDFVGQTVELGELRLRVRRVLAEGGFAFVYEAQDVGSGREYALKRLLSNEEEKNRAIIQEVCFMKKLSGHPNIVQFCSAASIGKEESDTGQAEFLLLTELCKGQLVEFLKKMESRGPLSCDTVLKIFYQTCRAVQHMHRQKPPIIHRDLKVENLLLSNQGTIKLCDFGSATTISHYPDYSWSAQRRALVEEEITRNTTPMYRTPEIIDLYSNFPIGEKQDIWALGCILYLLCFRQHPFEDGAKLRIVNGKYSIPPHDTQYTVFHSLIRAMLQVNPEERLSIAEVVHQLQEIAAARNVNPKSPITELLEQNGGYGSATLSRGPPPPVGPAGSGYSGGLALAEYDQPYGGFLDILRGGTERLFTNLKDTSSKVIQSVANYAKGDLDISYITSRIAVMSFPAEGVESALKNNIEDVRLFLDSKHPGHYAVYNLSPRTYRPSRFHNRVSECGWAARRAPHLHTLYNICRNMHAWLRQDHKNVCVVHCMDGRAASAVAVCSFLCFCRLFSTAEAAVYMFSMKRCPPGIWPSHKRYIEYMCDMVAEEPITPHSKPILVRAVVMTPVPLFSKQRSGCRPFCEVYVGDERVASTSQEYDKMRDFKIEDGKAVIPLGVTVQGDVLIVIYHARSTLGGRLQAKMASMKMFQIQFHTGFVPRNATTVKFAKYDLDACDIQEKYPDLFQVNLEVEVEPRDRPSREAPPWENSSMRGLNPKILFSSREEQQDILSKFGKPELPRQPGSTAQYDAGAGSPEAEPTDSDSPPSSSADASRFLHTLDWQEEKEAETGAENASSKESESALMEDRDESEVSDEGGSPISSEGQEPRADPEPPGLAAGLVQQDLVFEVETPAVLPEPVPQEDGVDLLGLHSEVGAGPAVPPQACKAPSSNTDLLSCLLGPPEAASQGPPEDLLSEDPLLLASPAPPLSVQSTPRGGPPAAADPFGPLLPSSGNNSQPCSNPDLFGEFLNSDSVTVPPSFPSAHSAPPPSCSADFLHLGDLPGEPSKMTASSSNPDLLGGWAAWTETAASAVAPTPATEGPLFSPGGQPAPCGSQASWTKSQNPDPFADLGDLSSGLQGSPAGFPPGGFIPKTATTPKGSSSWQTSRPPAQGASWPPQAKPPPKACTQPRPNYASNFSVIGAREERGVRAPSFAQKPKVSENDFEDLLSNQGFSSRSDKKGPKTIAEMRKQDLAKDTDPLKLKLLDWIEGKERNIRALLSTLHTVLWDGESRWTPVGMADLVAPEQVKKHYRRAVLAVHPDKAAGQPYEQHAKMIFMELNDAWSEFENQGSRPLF

Sample 1 — read-out: cell-free assay; technique: competition with immobilised ligand; concentration: 1 µM
Compound: CCCOc1ccc([C@@H]2[C@@H](C(=O)O)[C@H](c3ccc4c(c3)OCO4)CN2CC(=O)Nc2c(CC)cccc2CC)cc1
target	remaining binding [%]
Cytoplasmic tyrosine-protein kinase BMX (BMX, Homo sapiens, UniProt P51813)	100
Serine/threonine-protein kinase DCLK1 (DCLK1, Homo sapiens, UniProt O15075)	80
Leucine-rich repeat serine/threonine-protein kinase 2 (LRRK2, Homo sapiens, UniProt Q5S007)	84
Tyrosine-protein kinase JAK2, JH1 (JAK2, Homo sapiens, UniProt O60674)	79
Mitogen-activated protein kinase 6 (MAPK6, Homo sapiens, UniProt Q16659)	59
Serine/threonine-protein kinase Nek7 (NEK7, Homo sapiens, UniProt Q8TDX7)	100
Tyrosine-protein kinase Lyn (LYN, Homo sapiens, UniProt P07948)	96
Dual specificity protein kinase CLK1 (CLK1, Homo sapiens, UniProt P49759)	93
Receptor-type tyrosine-protein kinase FLT3 (FLT3, Homo sapiens, UniProt P36888, F691L/ITD)	63
Epithelial discoidin domain-containing receptor 1 (DDR1, Homo sapiens, UniProt Q08345)	89
TGF-beta receptor type-2 (TGFBR2, Homo sapiens, UniProt P37173)	96
Mitogen-activated protein kinase kinase kinase kinase 4 (MAP4K4, Homo sapiens, UniProt O95819)	97
Cyclin-G-associated kinase (GAK, Homo sapiens, UniProt O14976)	98
RAF proto-oncogene serine/threonine-protein kinase (RAF1, Homo sapiens, UniProt P04049)	100
Serine/threonine-protein kinase ULK1 (ULK1, Homo sapiens, UniProt O75385)	77

Sample 2 — read-out: enzyme activity; mode: inhibitor; concentration: 0.5 µM; reference: control
Target: Lymphokine-activated killer T-cell-originated protein kinase (PBK, Homo sapiens, UniProt Q96KB5)
Construct (Q96KB5 1-322): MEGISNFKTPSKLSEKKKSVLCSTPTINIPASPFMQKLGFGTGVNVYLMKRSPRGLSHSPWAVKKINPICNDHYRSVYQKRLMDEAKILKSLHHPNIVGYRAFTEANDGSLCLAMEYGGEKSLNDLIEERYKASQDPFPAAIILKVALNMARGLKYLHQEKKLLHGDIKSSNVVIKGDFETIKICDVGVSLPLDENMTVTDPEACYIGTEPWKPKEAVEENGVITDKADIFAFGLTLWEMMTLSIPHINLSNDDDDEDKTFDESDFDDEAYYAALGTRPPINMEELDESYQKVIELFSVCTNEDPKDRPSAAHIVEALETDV
SMILES	remaining activity [%]
CCN(CC)CCCCN1c2ccccc2Oc2ccc(Cl)cc21	105
COc1cc2c(Nc3ccc(Br)cc3F)ncnc2cc1OCC1CCN(C)CC1	98.9
CC(C)N(CCC(=O)c1ccc2ccccc2c1)Cc1ccccc1	108
O=C1c2ccccc2-c2nc3nnnn3nc21	64.5
CNc1cc2c(Nc3cccc(Br)c3)ncnc2cn1	102
NC(=O)c1ccc(-c2nc(-c3ccc4c(c3)OCCO4)c(-c3ccccn3)[nH]2)cc1	105
O=Nc1c(-c2c(O)[nH]c3ccccc23)[nH]c2ccccc12	89.5
c1cc(-c2cnn3cc(-c4ccc(OCCN5CCCCC5)cc4)cnc23)ccn1	79.7
N#C/C(=C(/N)SC1C=CC=CC1)c1cccc(C(O)c2ccncc2)c1 (stereo not drawn)	122
CC(C)n1cnc2c(Nc3cccc(Cl)c3)nc(NCCO)nc21	101
Clc1ccc(Nc2nnc(Cc3ccncc3)c3ccccc23)cc1	108
Nc1nc(Nc2ccc(S(N)(=O)=O)cc2)nn1C(=S)Nc1c(F)cccc1F	105
COc1cc2c(N3CCN(C(=O)Nc4ccc(OC(C)C)cc4)CC3)ncnc2cc1OCCCN1CCCCC1	98
N#CC(c1ccnc(NCCc2cccnc2)n1)c1nc2ccccc2s1 (stereo not drawn)	99.7
O=C(c1ccccc1)c1ccc(N2CCOCC2)cc1O	114
O=C(O)/C=C/c1cc(Br)c(Br)c(Br)c1Br	96.2
O=C1NC(=O)/C(=C/c2ccc3c(c2)OC(F)(F)O3)S1	91.8
CCCCc1c(-c2ccc(O)cc2)[nH]c2nccnc12	75.6
C[C@@H](N)[C@H]1CC[C@H](C(=O)Nc2ccncc2)CC1	56.7
CC(C)(C)c1nc2c3cc[nH]c(=O)c3c3cc(F)ccc3c2[nH]1	39.1
O=c1c(-c2ccc(F)cc2)c(-c2ccncc2)[nH]n1-c1ccc(Cl)cc1	87.7
NC(=O)c1cccc(-c2cc(Nc3ccc(OC(F)(F)F)cc3)ncn2)c1	72.2

Sample 3 — cell line: Huh-7; concentration: 10 µM; time: 24 h
SMILES	viability
C[C@H]1[C@H](NC(=O)/C(=N\OC(C)(C)C(=O)O)c2csc(N)n2)C(=O)N1S(=O)(=O)O	96.9%
CO/N=C(\C(=O)N[C@@H]1C(=O)N2C(C(=O)O)=C(COC(N)=O)CS[C@H]12)c1ccco1	100%
CCc1cn([C@H]2C[C@H](O)[C@@H](CO)O2)c(=O)[nH]c1=O	78.6%
c1ccc2[nH]c(-c3cscn3)nc2c1	101%
O=C(O)c1cc(-c2ccc(F)cc2F)ccc1O	97.5%
O=C1O[C@H](CO)[C@@H](O)[C@H](O)[C@H]1O	91.3%
CN(C(=O)CN(CCO)CC(=O)N(C)C(C)(C)Cc1ccccc1)C(C)(C)Cc1ccccc1	81.8%

Further values, each from its own experiment
Structure (SMILES)	assay	system	conditions	scale	endpoint	value
COc1ccc(-c2c(Nc3ccccn3)[nH]c3c(C4=CCCCC4)c(-c4ccccc4)nn3c2=O)cc1	immunohistochemistry	cancer patients, paired tumour biopsies	dose not given	reference: baseline, direction not given	mean SDMA H-score reduction	~36%

Excerpt of the above (sample 1):
target	remaining binding [%]
Tyrosine-protein kinase Lyn (LYN, Homo sapiens, UniProt P07948)	96
RAF proto-oncogene serine/threonine-protein kinase (RAF1, Homo sapiens, UniProt P04049)	100
Tyrosine-protein kinase JAK2, JH1 (JAK2, Homo sapiens, UniProt O60674)	79
Dual specificity protein kinase CLK1 (CLK1, Homo sapiens, UniProt P49759)	93
Serine/threonine-protein kinase ULK1 (ULK1, Homo sapiens, UniProt O75385)	77
Serine/threonine-protein kinase Nek7 (NEK7, Homo sapiens, UniProt Q8TDX7)	100
